Measured values gathered from unrelated publications.
Organism: Staphylococcus aureus

CC[C@H](C)[C@H](NC(=O)[C@H](CCCCN)NC(=O)[C@H](CCCCN)NC(=O)CNC(=O)[C@H](CCCCN)NC(=O)[C@H](CC(C)C)NC(=O)[C@H](CCCCN)NC(=O)[C@H](CCCNC(=N)N)NC(=O)[C@@H](NC(=O)[C@H](CC(C)C)NC(=O)[C@H](CCCNC(=N)N)NC(=O)[C@@H](N)CCCNC(=N)N)[C@@H](C)CC)C(=O)N[C@@H](Cc1ccc(O)cc1)C(=O)N[C@@H](CC(C)C)C(=O)N[C@@H](Cc1ccc(O)cc1)C(=O)N[C@@H](Cc1ccccc1)C(=O)N[C@@H](CCCCN)C(=O)N[C@@H](CC(C)C)C(=O)N[C@@H](CCC(N)=O)C(=O)N[C@@H](CC(C)C)C(=O)N[C@@H](CC(C)C)C(=O)N[C@@H](CCCCN)C(=O)N[C@@H](CCCCN)C(N)=O — MIC (broth microdilution; KCTC 1621, Mueller-Hinton broth; 24 h, 37 °C): 8 µM
CC[C@H](C)[C@H](NC(=O)[C@H](CCCNC(=N)N)NC(=O)[C@H](CCCNC(=N)N)NC(=O)[C@@H](N)CCCNC(=N)N)C(=O)N[C@@H](CO)C(=O)N[C@@H](Cc1ccccc1)C(=O)N[C@@H](CC(C)C)C(=O)NCC(=O)N[C@@H](CO)C(=O)N[C@@H](CCCCN)C(=O)N[C@H](C(=O)N[C@H](C(=O)N[C@H](C(=O)N[C@@H](CCCNC(=N)N)C(=O)N[C@@H](CCCNC(=N)N)C(=O)N[C@@H](CCCCN)C(=O)N[C@@H](CCCNC(=N)N)C(N)=O)C(C)C)C(C)C)C(C)C — MIC (broth microdilution; 24 h, 37 °C): 128 µM
CN[C@H](CC(C)C)C(=O)N[C@H]1C(=O)N[C@@H](CC(N)=O)C(=O)N[C@H]2C(=O)N[C@H]3C(=O)N[C@H](C(=O)N[C@H](C(=O)O)c4cc(O)cc(O)c4-c4cc3ccc4O)[C@H](O)c3ccc(c(Cl)c3)Oc3cc2cc(c3O[C@@H]2O[C@H](CO)[C@@H](O)[C@H](O)[C@H]2O[C@H]2C[C@](C)(N)[C@H](O)[C@H](C)O2)Oc2ccc(cc2Cl)[C@H]1O — MIC (broth microdilution; MW2 (MRSA), cation-adjusted Mueller-Hinton broth): 2 µg/mL
CC(C)C[C@H](NC(=O)[C@H](Cc1c[nH]c2ccccc12)NC(=O)[C@H](CC(C)C)NC(=O)[C@@H](NC(=O)[C@H](CC(C)C)NC(=O)[C@H](CCCNC(=N)N)NC(=O)[C@@H](N)CCCNC(=N)N)[C@@H](C)O)C(=O)N[C@H](C(=O)N[C@@H](CC(C)C)C(=O)N[C@@H](CCCNC(=N)N)C(=O)N[C@@H](CCCNC(=N)N)C(N)=O)[C@@H](C)O — MIC (broth microdilution; 29213, Mueller-Hinton broth; 24 h, 37 °C, lowest concentration, 95% inhibition, added: BSA): 4 µM
CC[C@H](C)[C@H](NC(=O)[C@H](CC(C)C)NC(=O)[C@H](CCCCN)NC(=O)[C@H](CC(C)C)NC(=O)CNC(=O)[C@@H](NC(=O)[C@H](CO)NC(=O)[C@@H](NC(=O)[C@@H](NC(=O)[C@H](CCC(N)=O)NC(=O)[C@H](Cc1c[nH]c2ccccc12)NC(=O)[C@H](CCCNC(=N)N)NC(=O)[C@H](CC(N)=O)NC(=O)[C@H](CCCNC(=N)N)NC(=O)[C@H](CCCNC(=N)N)NC(=O)[C@@H](NC(=O)[C@H](Cc1ccccc1)NC(=O)[C@H](CCCNC(=N)N)NC(=O)CNC(=O)[C@H](C)NC(=O)[C@H](CCCNC(=N)N)NC(=O)[C@H](CCCNC(=N)N)NC(=O)[C@H](CCCCN)NC(=O)[C@H](Cc1ccccc1)NC(=O)[C@H](CCCNC(=N)N)NC(=O)CNC(=O)[C@H](Cc1c[nH]c2ccccc12)NC(=O)[C@H](CCCNC(=N)N)NC(=O)CNC(=O)[C@H](CCCNC(=N)N)NC(=O)[C@@H](N)[C@@H](C)O)[C@@H](C)CC)[C@@H](C)CC)[C@@H](C)CC)[C@@H](C)O)C(=O)NCC(=O)O — MIC (broth microdilution; MRSA CMCC 43300): 0.6 µM
CC[C@H](C)[C@H](NC(=O)[C@H](CC(C)C)NC(=O)[C@H](CCCNC(=N)N)NC(=O)[C@@H](N)CCCNC(=N)N)C(=O)N[C@@H](CCCNC(=N)N)C(=O)N[C@H](C(=O)N[C@@H](CC(C)C)C(=O)N[C@H](C(=O)NCC(=O)N1CCC[C@H]1C(=O)N[C@H](C(=O)N[C@H](C(=O)N[C@@H](Cc1ccc(O)cc1)C(=O)N[C@@H](CC(C)C)C(=O)N[C@@H](Cc1ccc(O)cc1)C(=O)N[C@@H](Cc1ccccc1)C(=O)N[C@@H](CCCCN)C(=O)N[C@@H](CC(C)C)C(=O)N[C@@H](CCC(N)=O)C(=O)N[C@@H](CC(C)C)C(=O)N[C@@H](CC(C)C)C(=O)N[C@@H](CCCCN)C(=O)N[C@@H](CCCCN)C(N)=O)[C@@H](C)CC)[C@@H](C)CC)[C@@H](C)O)[C@@H](C)O — MIC (broth microdilution; KCTC 1621, Mueller-Hinton broth; 24 h, 37 °C): 64 µM
NCCCC1CN(c2ccc3c(n2)NC(=O)CO3)C(=O)O1 (stereo not shown) — MIC (ATCC 29213): 160 µg/mL
CC[C@H](C)[C@H](NC(=O)[C@H](CC(C)C)NC(=O)[C@H](CCCNC(=N)N)NC(=O)[C@@H](N)CCCNC(=N)N)C(=O)N[C@@H](CCCNC(=N)N)C(=O)N[C@@H](CCCCN)C(=O)N[C@@H](CC(C)C)C(=O)N[C@@H](CCCCN)C(=O)NCC(=O)N[C@@H](CC(C)C)C(=O)N[C@@H](CCCCN)C(=O)N[C@@H](CCCCN)C(=O)N[C@@H](Cc1ccc(O)cc1)C(=O)N[C@@H](CC(C)C)C(=O)N[C@@H](Cc1ccc(O)cc1)C(=O)N[C@@H](Cc1ccccc1)C(=O)N[C@@H](CCCCN)C(=O)N[C@@H](CC(C)C)C(=O)N[C@@H](CCC(N)=O)C(=O)N[C@@H](CC(C)C)C(=O)N[C@@H](CC(C)C)C(=O)N[C@@H](CCCCN)C(=O)N[C@@H](CCCCN)C(N)=O — MIC (CCARM 3089, methicillin-resistant, Mueller-Hinton broth; 24 h): 8 µM
Cn1c(=O)n(-c2ccc(C(C)(C)C#N)cc2)c2c3cc(-c4cnc5ccccc5c4)ccc3ncc21 — MIC (NCTC 8325): > 30 µM
CC[C@H](C)[C@H](NC(=O)[C@H](CCCNC(=N)N)NC(=O)[C@H](CCCCN)NC(=O)[C@H](CC(C)C)NC(=O)[C@H](CCCCN)NC(=O)[C@H](CCCCN)NC(=O)CNC(=O)[C@H](Cc1ccccc1)NC(=O)[C@H](CC(N)=O)NC(=O)[C@H](CCCNC(=N)N)NC(=O)[C@@H](N)CC(C)C)C(=O)NCC(=O)N[C@@H](CCCCN)C(=O)N[C@@H](Cc1ccc(O)cc1)C(=O)N[C@H](C(=O)N[C@@H](CCCNC(=N)N)C(=O)N[C@@H](CC(N)=O)C(=O)N[C@H](C(=O)N[C@@H](C)C(=O)N[C@@H](CCC(N)=O)C(=O)N[C@@H](CCCCN)C(=O)N[C@H](C(=O)N[C@H](C(=O)N[C@H](C(=O)N[C@H](C(=O)N[C@@H](C)C(=O)N[C@@H](CCC(N)=O)C(=O)NCC(=O)N[C@@H](C)C(=O)N[C@@H](C)C(=O)NCC(=O)N[C@H](C(=O)N[C@@H](C)C(=O)N[C@@H](CCCCN)C(=O)O)C(C)C)C(C)C)[C@@H](C)O)C(C)C)C(C)C)C(C)C)[C@@H](C)O — MIC (broth microdilution; ATCC 29213, Mueller-Hinton broth; 16 to 20 h, 37 °C): 76.6 µM
CC[C@H](C)[C@H](N)C(=O)N[C@@H](CC(C)C)C(=O)NCC(=O)N[C@H](CCCNC(=N)N)C(=O)N[C@H](C(=O)N[C@@H](Cc1c[nH]c2ccccc12)C(=O)N[C@@H](CCCCN)C(=O)NCC(=O)N[C@H](C(=O)N[C@@H](CCCCN)C(=O)N[C@@H](CC(=O)O)C(=O)N[C@H](C(=O)N[C@@H](CC(C)C)C(N)=O)[C@@H](C)CC)[C@@H](C)CC)[C@@H](C)CC — MIC (broth microdilution; ATCC 25923; added: NH4Cl 6 µM): 25 µM
CN[C@H](CC(C)C)C(=O)N[C@H]1C(=O)N[C@@H](CC(N)=O)C(=O)N[C@H]2C(=O)N[C@H]3C(=O)N[C@H](C(=O)N[C@H](C(=O)O)c4cc(O)cc(O)c4-c4cc3ccc4O)[C@H](O)c3ccc(c(Cl)c3)Oc3cc2cc(c3O[C@@H]2O[C@H](CO)[C@@H](O)[C@H](O)[C@H]2O[C@H]2C[C@](C)(N)[C@H](O)[C@H](C)O2)Oc2ccc(cc2Cl)[C@H]1O — MIC (LIM-2 VISA): 3 µM
CC[C@H](C)[C@H](NC(=O)[C@H](Cc1ccccc1)NC(=O)[C@@H](NC(=O)[C@H](Cc1c[nH]c2ccccc12)NC(=O)[C@@H]1CCCN1C(=O)[C@@H](NC(=O)[C@H](C)N)[C@@H](C)CC)[C@@H](C)CC)C(=O)N[C@@H](Cc1ccccc1)C(=O)N[C@@H](CCCNC(=N)N)C(=O)N[C@@H](CC(C)C)C(=O)N[C@@H](CC(C)C)C(=O)N[C@@H](CCCNC(=N)N)C(=O)N[C@@H](CCCCN)C(=O)NCC(N)=O — MIC (broth microdilution; ATCC 6051; 18 h, 37 °C): 0.94 µM

Excerpt of the above:
CC[C@H](C)[C@H](NC(=O)[C@H](CC(C)C)NC(=O)[C@H](CCCNC(=N)N)NC(=O)[C@@H](N)CCCNC(=N)N)C(=O)N[C@@H](CCCNC(=N)N)C(=O)N[C@@H](CCCCN)C(=O)N[C@@H](CC(C)C)C(=O)N[C@@H](CCCCN)C(=O)NCC(=O)N[C@@H](CC(C)C)C(=O)N[C@@H](CCCCN)C(=O)N[C@@H](CCCCN)C(=O)N[C@@H](Cc1ccc(O)cc1)C(=O)N[C@@H](CC(C)C)C(=O)N[C@@H](Cc1ccc(O)cc1)C(=O)N[C@@H](Cc1ccccc1)C(=O)N[C@@H](CCCCN)C(=O)N[C@@H](CC(C)C)C(=O)N[C@@H](CCC(N)=O)C(=O)N[C@@H](CC(C)C)C(=O)N[C@@H](CC(C)C)C(=O)N[C@@H](CCCCN)C(=O)N[C@@H](CCCCN)C(N)=O — MIC (CCARM 3089, methicillin-resistant, Mueller-Hinton broth; 24 h): 8 µM
